# Assay results collected from several papers.
# Compare with care: the assays were run in different laboratories. Several values in a cell are separate wells, animals, samples, runs or records. ± marks the error that the study gave.
# UniProt P03372, sequence (whole entry, looked up): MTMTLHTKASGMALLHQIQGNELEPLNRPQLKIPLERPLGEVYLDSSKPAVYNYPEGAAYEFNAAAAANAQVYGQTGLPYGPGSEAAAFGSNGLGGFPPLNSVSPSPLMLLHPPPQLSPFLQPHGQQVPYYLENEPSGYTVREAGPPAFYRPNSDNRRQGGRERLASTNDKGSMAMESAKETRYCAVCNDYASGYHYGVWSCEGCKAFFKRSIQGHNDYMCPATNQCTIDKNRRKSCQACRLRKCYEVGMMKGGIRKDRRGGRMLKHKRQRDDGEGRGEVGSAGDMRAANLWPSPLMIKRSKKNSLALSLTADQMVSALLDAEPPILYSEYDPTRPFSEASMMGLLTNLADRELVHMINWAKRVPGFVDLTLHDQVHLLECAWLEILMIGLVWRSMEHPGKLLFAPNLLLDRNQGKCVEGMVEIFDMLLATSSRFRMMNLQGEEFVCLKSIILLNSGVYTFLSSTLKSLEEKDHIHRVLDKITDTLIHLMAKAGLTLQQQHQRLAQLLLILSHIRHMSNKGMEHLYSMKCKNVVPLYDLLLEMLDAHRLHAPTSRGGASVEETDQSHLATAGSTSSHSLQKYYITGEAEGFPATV
Structure (SMILES),target or system,test,test system,conditions,scale,endpoint,value
CC1(C)CC(=O)C2=C(C1)Oc1ccccc1C2C1C(=O)NC(=O)NC1=O (stereo not shown),3T3-L1 pre-adipocytes,"cell viability, MTT",,72 h,,IC50,> 100000 ng/mL
CN[C@@H]1[C@H](O)[C@H](NC)[C@H]2O[C@]3(O)[C@H](O[C@@H]2[C@H]1O)O[C@H](C)C[C@H]3NC(=O)Cc1ccc(Cl)cn1,GABA transporter,binding,,10 µM,,inhibition,-14%
CN(C(=O)c1ccn2ncc(-c3ccc(C(N)=O)cc3)c2c1)c1ccc(C#N)cn1,Cryptosporidium parvum,,"UGA1 Nluc, IFN-gamma knockout C57BL/6 mice, faeces","oral, 10 mg/kg daily, 384 h post infection, treatment days 11-17",higher means more parasites,faecal Nluc luminescence,107 a.u. and 42800 a.u. and 1860 a.u. and 1200 a.u.
O=C1NC2(CC2)COc2ncc(F)cc2[C@H]2COCCN2c2ccn3ncc1c3n2,,,"Sprague-Dawley rat, female, heart","oral, 20 mg/kg/day, 4 weeks dosing, end of recovery",,organ-to-body weight ratio,0.395 ± 0.026%
Cc1ccc2c(n1)c(-c1cccc(S(C)(=O)=O)c1)c(C)n2C/C(F)=C/CN,kainate receptor (rat),radioligand binding,,"10 µM, rat",,inhibition,6%
Cc1cc(C(=O)Nc2nc3cccc(C)c3n2[C@H]2CCCCN(C(=O)/C=C/CN(C)C)C2)ccn1,Trypanosoma brucei brucei,,2T1 CLK1 C215S overexpressing,"0.01029 µM, 72 h",,survival,112% and 108% and 101% and 114% and 103% and 68.4%
CS(C)(=O)=Nc1ccc(-c2ccc(-c3nc4cc(O[C@@H]5CO[C@H]6[C@@H]5OC[C@H]6O)[nH]c4cc3F)cc2)cc1,"Estrogen receptor (ESR1, Homo sapiens, UniProt P03372)","ligand displacement, radioligand",,10 µM,,inhibition,1%
CCc1nc2ccccn2c1C(=O)NCc1ccc2oc(-c3ccc(OC(F)(F)F)cc3)nc2c1,Mycolicibacterium smegmatis,,,,,MIC90,> 100 µM
CN(CCO)CCO.O=C(O)C(Cl)Cl,Amaranthus retroflexus,herbicidal activity,,"15 mg/mL, 21 days, post-emergence greenhouse",,inhibition,-58%
CCc1nn(C)c2nc(-c3ccc(C(=O)O)cc3)nc(NCc3ccccc3)c12,Cryptosporidium parvum,"parasite growth, immunofluorescence imaging","HCT-8, Iowa",667 nM,,inhibition,16.3% and 30.6%
CCN(CC)C(=O)[C@@H]1C=C2c3cccc4c3c(cn4C(=O)c3cccs3)C[C@H]2N(C)C1,,magnetometer detection,mouse C57BL/6J male,"intraperitoneal, dose not given, maximally active doses, 5 min blocks",,time to peak head-twitch response,5 to 10 min
NC[C@]1(CC(=O)O)CC[C@@H]([18F])CC1,,PET,"rhesus monkey, whole brain","dose not given, together with: gabapentin pre-injection",reference: baseline,K1 change,16%
COc1ccccc1-c1ccncc1C(=O)Nc1nnc(OCc2ccc(Cl)cc2)s1,RPE-1 BRCA1 WT parental,,,"0.5 µM, average of 2 runs",reference: untreated,colony survival,83.9%
Nc1ncc(-c2cc(-c3cnn(CC(F)(F)F)c3)ncc2F)nc1C(=O)NC1CNCC(F)C1 (stereo not shown),ABL1(T315I)-nonphosphorylated,KINOMEscan competition binding,,1 µM,reference: DMSO control,remaining binding,100%
O=C(O)c1ccc(-c2nc(-c3ccccc3Cl)c3sccn23)cc1,,,"CD34+ hematopoietic stem cells, human",0.1 mM,,CFU-GM colony count,66 and 71
FC(F)(F)c1cccc(CNc2nc(NC3CCN(Cc4ccccc4)CC3)c3nc[nH]c3n2)c1,Cryptococcus neoformans,"RNA-seq, item: CNAG_06065",,"48 µg/mL, 3 h",reference: untreated,mRNA fold change,1.86
CCn1ccc(-c2cc([C@@H](C)NC(=O)c3cc(OC[C@@H]4CCN4C)ccc3C)c3ccccc3n2)n1,African green monkey cells,,,31.25 µM,,viability,74.6%
CC(C)(C)C(=O)OCOP(=O)(OCOC(=O)C(C)(C)C)C1CCCN(O)C1=O (stereo not shown),M14,,,,,log GI50,-6.16 log M
Cc1cc(Oc2nc(N3CC[C@@H](c4ccncc4)C3)ncc2F)[nH]n1,Mycobacterium tuberculosis,OD,H37Rv PurF CRISPRi knockdown,"0.25 µM, together with: anhydrotetracycline low",,normalised growth,2%
CC(C)CC(C(=O)N1CC2(CC1C#N)C(=O)Nc1ccccc12)N(C)C(=O)c1cc2c(F)cc(F)c(F)c2[nH]1 (stereo not shown),Human coronavirus 229E,cytopathic effect,MRC5,3.375 µM,,inhibition,107%
CC[C@H](C)[C@@H]1NC(=O)[C@H](Cc2c[nH]cn2)NC(=O)[C@H](CC(N)=O)NC(=O)[C@H](CO)NC(=O)[C@H](CCC(N)=O)NC(=O)[C@@H](NC(=O)CN)CSSC[C@@H]2NC(=O)CNC(=O)[C@H](C)NC(=O)[C@H](CC(C)C)NC(=O)[C@@H]3CSSC[C@@H](C(=O)NCC(=O)O)NC(=O)[C@H](Cc4ccccc4)NC(=O)CNC(=O)[C@H](CC(N)=O)NC(=O)[C@@H]4CCCN4C(=O)CNC(=O)[C@H](CSSC[C@H](NC(=O)[C@H](CCCNC(=N)N)NC(=O)[C@H](CC(N)=O)NC(=O)[C@H](Cc4c[nH]cn4)NC(=O)[C@H](CCCCN)NC(=O)[C@H](CC(C)C)NC1=O)C(=O)N[C@@H](CCCCN)C(=O)N[C@@H](CCC(N)=O)C(=O)N[C@@H](CC(=O)O)C(=O)N[C@@H](CO)C(=O)N[C@@H](CC(=O)O)C(=O)N3)NC(=O)[C@H](C(C)C)NC2=O,HEK293-TB,Wnt1/sFRP-1 signalling,,,,IC50,< 10 µM
CCc1nc2ccc(Br)cn2c1C(=O)NCc1ccc2oc(-c3ccc(OC(F)(F)F)cc3)nc2c1,Mycolicibacterium smegmatis,,,,,MIC90,> 100 µM
CC(C)C[C@H](NC(=O)[C@H](CC(=O)O)NC(=O)[C@@H](NC(=O)[C@H](CCC(=O)O)NC(=O)[C@H](CCCCN)NC(=O)[C@H](Cc1ccc(O)cc1)NC(=O)[C@H](CCCCN)NC(=O)[C@H](Cc1c[nH]cn1)NC(=O)CNC(=O)CN)[C@@H](C)O)C(N)=O,HCV IRES RNA,"MALDI-TOF mass spectrometry, item: 5'-hydroxyl products",hepatitis C virus,,,initial cleavage rate,1.1 ± 0.1 %/min
C=C(NC(=O)c1csc(-c2nc3c(cc2O)-c2nc(cs2)C(=O)NC(C(C)O)C(=O)NC(=C(C)OC)c2nc(cs2)C(=O)NC2c4nc(cs4)C(=O)NC(COC(=O)c4c5c6c(cccc6n4O)COC(=O)C(OC4CC(C)(O)C(N(C)C)C(C)O4)C2OC5)c2nc-3cs2)n1)C(N)=O (stereo not shown),Streptococcus viridans,,10 clinical isolates,,,MIC50,7.8 ng/mL
Cc1ccc(OCCN(C)C)cc1C(=O)N[C@H](C)c1cc(-c2ccc(CNC3CCCC3)s2)nc2ccccc12,Vero E6,,,31.25 µM,,viability,0.685% and 0.228%
COc1ccccc1-c1n[nH]c2nc(N[C@H]3CC[C@H](NS(=O)(=O)CC(C)C)CC3)ncc12,,"bead binding, competition bead pull-down, item: LINJ.34.0150",Leishmania donovani extract,10 µM,reference: vehicle,relative abundance,1.21
Cc1nc2cccc(OCC(C)(C)C(=O)NC(C)C)c2c(N)c1C(=O)[O-].[Na+],Salmonella typhimurium,"reverse mutation, plate incorporation",TA98,"0.32 mg/plate, without S9",,revertant colonies,29 ± 3 colonies/plate
CC[C@H](C)[C@H](NC(=O)[C@H](CC(=O)O)NC(=O)[C@@H](NC(=O)[C@@H]1CCCN1C(=O)[C@@H](N)CCCNC(=N)N)[C@@H](C)O)C(=O)N[C@@H](CCCCN)C(=O)N[C@H]1CSSC[C@@H]2NC(=O)[C@H](CCCNC(=N)N)NC(=O)CNC(=O)[C@H](CC(N)=O)NC(=O)[C@H]([C@@H](C)O)NC(=O)[C@H](CCCCN)NC(=O)CNC(=O)[C@H](Cc3ccccc3)NC(=O)[C@H](CCCNC(=N)N)NC(=O)[C@H](CO)NC(=O)[C@H](CCCCNC(=O)OCc3cc(OC)c(OC)cc3[N+](=O)[O-])NC(=O)[C@@H]3CSSC[C@@H](C(=O)N[C@@H](Cc4ccccc4)C(=O)O)NC(=O)[C@H](CC(=O)O)NC(=O)[C@H](CSSC[C@H](NC(=O)[C@H](CCC(N)=O)NC(=O)[C@H](Cc4ccc(O)cc4)NC(=O)[C@H](CO)NC(=O)[C@H](CCC(=O)O)NC(=O)[C@H](CO)NC1=O)C(=O)N[C@@H](Cc1ccccc1)C(=O)N1CCC[C@H]1C(=O)N[C@@H](C(C)C)C(=O)N3)NC(=O)[C@H](Cc1ccccc1)NC(=O)CNC(=O)[C@H](CC(N)=O)NC(=O)[C@H](C(C)C)NC2=O,human iPS-derived cardiomyocytes,,,"200 nM, no illumination, 1000 ms cycle",,APD90,279 ± 47.2 ms
COc1ccccc1-c1n[nH]c2nc(NC3CCN(C(=O)Cc4ccc(F)cc4F)CC3)ncc12,,"bead binding, competition bead pull-down, item: LINJ.27.2570",Leishmania donovani axenic amastigote extract,10 µM,reference: vehicle,relative abundance,0.13
Cc1nc2ccc(OC(F)(F)F)cn2c1C(=O)NCc1ccc2oc(-c3ccc(Cl)cc3)nc2c1,Mycolicibacterium smegmatis,,,,,MIC90,> 100 µM
O=C(NCc1cc(F)cc(F)c1)[C@@]1(O)CCN(c2ccc3[nH]ccc3c2)C1=O,,,sample I PDX mouse,"dose not given, RTV endpoint 500%",,median survival time,31 days

# Some of these lines once more:
Structure (SMILES),target or system,test,test system,conditions,scale,endpoint,value
O=C1NC2(CC2)COc2ncc(F)cc2[C@H]2COCCN2c2ccn3ncc1c3n2,,,"Sprague-Dawley rat, female, heart","oral, 20 mg/kg/day, 4 weeks dosing, end of recovery",,organ-to-body weight ratio,0.395 ± 0.026%
COc1ccccc1-c1n[nH]c2nc(N[C@H]3CC[C@H](NS(=O)(=O)CC(C)C)CC3)ncc12,,"bead binding, competition bead pull-down, item: LINJ.34.0150",Leishmania donovani extract,10 µM,reference: vehicle,relative abundance,1.21
